# Published values gathered from unrelated publications.
# Organism: Human alphaherpesvirus 1
SMILES,assay,test system,conditions,how to read,measurement,result
O=c1c(-c2nc3ccccc3s2)cc2c(n1NS(=O)(=O)c1ccc(Cl)cc1)CCCCCC2,"viral replication, plaque reduction",Vero cells,,baseline: CC50 over IC50,selectivity index,3.56
C=C(C)[C@@H]1CC[C@]2(C(=O)n3ccnc3)CC[C@]3(C)[C@H](CC[C@@H]4[C@@]5(C)CCCNC(C)(C)[C@@H]5CC[C@]43C)[C@@H]12,,"HFF, E-377",,baseline: CC50 over EC50,selectivity index,< 1
Cc1cccc(C=NNC(=N)NO)n1,plaque formation,Vero,96 h,,IC50,> 100 µM
C=C(C)[C@@H]1CC[C@]2(C(N)=O)CC[C@]3(C)[C@H](CC[C@@H]4[C@@]5(C)CCCNC(C)(C)[C@@H]5CC[C@]43C)[C@@H]12,cytopathic effect,"HFF, E-377",,,EC90,> 6 µM
C=CC1CN(C(=O)NCC=CCSCC=CCNC(=O)N2CC(C=C)OC2=S)C(=S)O1 (centres unmarked),viral replication,HSV-1,,,IC50,3.7 µM
CC(=O)OC[C@H]1O[C@@H](Sc2sc(C(=O)c3ccc(C)cc3)c(N)c2-c2nc3ccccc3s2)[C@H](OC(C)=O)[C@@H](OC(C)=O)[C@H]1OC(C)=O,plaque formation,HSV-1,,,IC50,0.57 mg/L
N=C(NO)NN=Cc1ncccc1O,plaque formation,Vero,96 h,,IC50,156 µM
Cc1ccc(S(=O)(=O)Nn2c3c(cc(-c4nc5ccccc5s4)c2=O)CCCCCC3)cc1,"viral replication, plaque reduction",Vero cells,,,IC50,98 mg/L

# For quick reference, copied from above:
SMILES,assay,test system,conditions,how to read,measurement,result
Cc1cccc(C=NNC(=N)NO)n1,plaque formation,Vero,96 h,,IC50,> 100 µM
